Results collected from several papers.
Compare with care: the assays were run in different laboratories. Several values in a cell are separate wells, animals, samples, runs or records. ± gives the spread as reported.
UniProt D0VWV4, sequence (whole entry, looked up): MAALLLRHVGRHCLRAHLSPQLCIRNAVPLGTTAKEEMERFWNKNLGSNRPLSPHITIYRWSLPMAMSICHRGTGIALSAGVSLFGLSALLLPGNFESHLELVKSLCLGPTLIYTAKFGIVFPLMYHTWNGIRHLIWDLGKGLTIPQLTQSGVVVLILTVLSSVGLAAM
UniProt A5GZW8, sequence (whole entry, looked up): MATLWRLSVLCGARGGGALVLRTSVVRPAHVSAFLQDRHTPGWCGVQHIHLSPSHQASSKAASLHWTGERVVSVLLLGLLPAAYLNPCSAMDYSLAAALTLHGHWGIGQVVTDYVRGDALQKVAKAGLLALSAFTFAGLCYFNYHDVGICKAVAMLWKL
UniProt Q007T0, sequence (whole entry, looked up): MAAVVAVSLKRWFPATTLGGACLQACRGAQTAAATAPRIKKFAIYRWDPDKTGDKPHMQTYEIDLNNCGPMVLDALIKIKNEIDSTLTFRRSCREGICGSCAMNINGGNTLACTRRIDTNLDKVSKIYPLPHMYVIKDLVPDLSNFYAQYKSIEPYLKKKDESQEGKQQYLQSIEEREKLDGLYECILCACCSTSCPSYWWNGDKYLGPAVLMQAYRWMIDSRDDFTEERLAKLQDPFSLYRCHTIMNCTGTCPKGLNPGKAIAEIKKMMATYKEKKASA
UniProt Q9JLB5, sequence (whole entry, looked up): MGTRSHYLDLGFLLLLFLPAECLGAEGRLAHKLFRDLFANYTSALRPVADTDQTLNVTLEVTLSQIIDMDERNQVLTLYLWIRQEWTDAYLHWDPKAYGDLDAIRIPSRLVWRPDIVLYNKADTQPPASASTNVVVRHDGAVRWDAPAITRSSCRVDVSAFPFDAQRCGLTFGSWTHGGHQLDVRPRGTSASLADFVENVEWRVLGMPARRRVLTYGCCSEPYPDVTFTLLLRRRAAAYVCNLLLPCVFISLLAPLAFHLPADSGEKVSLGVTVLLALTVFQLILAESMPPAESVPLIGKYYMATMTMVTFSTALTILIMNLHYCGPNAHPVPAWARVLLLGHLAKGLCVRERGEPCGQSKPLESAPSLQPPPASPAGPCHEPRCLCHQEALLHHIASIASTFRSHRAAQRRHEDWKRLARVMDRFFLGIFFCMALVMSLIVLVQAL
UniProt P43144, sequence (whole entry, looked up): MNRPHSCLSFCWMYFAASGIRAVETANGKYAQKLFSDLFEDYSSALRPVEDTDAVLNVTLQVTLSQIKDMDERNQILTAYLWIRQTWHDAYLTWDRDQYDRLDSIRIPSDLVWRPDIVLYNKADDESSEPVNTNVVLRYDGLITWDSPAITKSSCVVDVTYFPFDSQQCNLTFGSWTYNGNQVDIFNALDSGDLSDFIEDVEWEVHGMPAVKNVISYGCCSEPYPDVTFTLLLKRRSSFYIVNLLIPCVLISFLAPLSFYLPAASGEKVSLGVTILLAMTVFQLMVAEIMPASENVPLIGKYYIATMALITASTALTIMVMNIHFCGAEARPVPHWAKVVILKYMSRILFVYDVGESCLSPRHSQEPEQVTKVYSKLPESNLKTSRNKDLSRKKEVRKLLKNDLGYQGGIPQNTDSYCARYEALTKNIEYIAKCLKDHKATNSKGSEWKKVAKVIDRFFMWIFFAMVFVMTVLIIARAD
UniProt P38606, sequence (whole entry, looked up): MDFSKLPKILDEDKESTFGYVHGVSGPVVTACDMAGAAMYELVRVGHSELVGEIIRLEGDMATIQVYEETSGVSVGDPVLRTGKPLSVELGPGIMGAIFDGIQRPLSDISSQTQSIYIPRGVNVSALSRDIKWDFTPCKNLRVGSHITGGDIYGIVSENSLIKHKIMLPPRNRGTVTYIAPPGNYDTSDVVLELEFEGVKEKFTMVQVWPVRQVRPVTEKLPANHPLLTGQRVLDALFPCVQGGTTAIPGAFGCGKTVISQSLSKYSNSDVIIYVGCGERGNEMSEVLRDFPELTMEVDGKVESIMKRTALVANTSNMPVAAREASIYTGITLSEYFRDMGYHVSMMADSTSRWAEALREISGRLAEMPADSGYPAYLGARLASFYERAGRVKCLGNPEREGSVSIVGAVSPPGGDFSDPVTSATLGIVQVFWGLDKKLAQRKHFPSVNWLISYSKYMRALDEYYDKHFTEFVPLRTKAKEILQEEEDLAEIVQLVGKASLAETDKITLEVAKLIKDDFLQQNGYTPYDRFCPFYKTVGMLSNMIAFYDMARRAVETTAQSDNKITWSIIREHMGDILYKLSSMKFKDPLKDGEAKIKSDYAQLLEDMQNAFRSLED
UniProt Q99835, sequence (whole entry, looked up): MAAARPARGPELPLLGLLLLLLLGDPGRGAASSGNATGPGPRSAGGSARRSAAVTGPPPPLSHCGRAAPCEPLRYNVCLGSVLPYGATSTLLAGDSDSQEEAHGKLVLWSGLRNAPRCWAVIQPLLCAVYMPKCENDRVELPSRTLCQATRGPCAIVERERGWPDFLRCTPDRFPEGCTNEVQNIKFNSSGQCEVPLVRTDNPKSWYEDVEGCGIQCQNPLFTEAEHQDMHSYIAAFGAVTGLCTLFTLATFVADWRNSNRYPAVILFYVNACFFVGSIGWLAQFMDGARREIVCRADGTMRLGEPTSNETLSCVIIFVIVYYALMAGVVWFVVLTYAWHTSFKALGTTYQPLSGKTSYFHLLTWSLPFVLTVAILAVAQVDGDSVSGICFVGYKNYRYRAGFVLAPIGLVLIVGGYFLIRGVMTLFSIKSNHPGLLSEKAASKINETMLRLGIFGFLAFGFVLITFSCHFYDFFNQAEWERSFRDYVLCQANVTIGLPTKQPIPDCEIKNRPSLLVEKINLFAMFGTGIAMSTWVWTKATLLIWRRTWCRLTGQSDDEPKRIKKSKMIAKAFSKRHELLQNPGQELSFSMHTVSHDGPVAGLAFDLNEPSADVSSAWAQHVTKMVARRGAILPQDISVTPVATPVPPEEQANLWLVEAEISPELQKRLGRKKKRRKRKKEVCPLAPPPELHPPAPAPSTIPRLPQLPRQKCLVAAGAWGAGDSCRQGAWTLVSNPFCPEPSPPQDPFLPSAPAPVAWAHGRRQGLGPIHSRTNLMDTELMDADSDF
UniProt P20595, sequence (whole entry, looked up): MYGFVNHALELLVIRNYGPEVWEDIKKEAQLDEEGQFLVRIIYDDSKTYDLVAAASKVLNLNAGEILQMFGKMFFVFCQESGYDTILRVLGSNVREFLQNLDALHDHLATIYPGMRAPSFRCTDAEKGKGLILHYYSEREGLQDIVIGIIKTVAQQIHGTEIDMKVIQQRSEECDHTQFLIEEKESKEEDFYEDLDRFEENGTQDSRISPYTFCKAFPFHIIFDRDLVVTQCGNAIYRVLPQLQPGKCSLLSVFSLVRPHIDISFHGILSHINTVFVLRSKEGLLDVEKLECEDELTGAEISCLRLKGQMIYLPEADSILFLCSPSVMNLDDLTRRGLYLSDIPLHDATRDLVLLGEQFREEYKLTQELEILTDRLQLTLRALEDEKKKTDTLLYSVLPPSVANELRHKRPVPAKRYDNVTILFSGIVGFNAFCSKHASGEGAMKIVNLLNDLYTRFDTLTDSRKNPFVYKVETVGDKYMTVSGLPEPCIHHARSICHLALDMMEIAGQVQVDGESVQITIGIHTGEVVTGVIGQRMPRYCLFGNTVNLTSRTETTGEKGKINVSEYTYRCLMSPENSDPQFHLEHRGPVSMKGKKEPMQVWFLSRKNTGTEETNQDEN
UniProt Q2FDS6, sequence (whole entry, looked up): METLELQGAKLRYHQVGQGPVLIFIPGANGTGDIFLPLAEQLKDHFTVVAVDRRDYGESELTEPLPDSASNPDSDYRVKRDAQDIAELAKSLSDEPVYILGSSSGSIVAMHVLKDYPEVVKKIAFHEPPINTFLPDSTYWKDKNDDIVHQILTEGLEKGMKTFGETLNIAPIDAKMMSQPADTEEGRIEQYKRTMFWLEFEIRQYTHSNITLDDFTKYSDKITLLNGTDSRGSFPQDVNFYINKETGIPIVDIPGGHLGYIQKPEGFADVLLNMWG
UniProt Q62351, sequence (whole entry, looked up): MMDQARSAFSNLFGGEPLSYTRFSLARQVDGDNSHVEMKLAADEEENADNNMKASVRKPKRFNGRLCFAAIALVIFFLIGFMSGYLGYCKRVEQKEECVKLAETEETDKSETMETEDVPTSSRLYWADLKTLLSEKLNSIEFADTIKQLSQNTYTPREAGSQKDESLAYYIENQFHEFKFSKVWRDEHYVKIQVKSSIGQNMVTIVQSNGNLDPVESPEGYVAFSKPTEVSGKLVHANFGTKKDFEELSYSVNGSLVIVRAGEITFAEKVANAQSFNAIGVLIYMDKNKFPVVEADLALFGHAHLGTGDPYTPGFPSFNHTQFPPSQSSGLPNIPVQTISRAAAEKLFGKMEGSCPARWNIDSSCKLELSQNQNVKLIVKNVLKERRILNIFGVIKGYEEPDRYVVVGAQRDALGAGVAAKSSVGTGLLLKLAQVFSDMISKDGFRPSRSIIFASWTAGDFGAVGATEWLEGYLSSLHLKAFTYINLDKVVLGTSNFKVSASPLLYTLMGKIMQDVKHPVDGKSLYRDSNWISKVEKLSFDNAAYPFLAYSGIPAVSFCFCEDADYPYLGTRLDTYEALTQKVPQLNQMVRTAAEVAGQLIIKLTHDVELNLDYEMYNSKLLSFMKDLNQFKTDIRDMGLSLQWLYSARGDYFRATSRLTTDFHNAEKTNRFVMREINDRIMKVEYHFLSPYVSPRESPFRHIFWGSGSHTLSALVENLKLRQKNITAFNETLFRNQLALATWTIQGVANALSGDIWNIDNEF
UniProt P00942, sequence (whole entry, unmodified, looked up): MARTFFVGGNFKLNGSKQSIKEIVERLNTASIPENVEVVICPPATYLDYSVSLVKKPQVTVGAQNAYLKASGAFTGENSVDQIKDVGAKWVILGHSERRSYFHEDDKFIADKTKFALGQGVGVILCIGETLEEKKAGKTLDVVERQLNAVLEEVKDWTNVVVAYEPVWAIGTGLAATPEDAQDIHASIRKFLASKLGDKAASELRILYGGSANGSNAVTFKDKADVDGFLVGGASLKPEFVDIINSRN

The reactivity ratio of `C#CCCCCNC(=O)CI` is reported as 0.903 (V-type proton ATPase catalytic subunit A (ATP6V1A, Homo sapiens, UniProt P38606); mass spectrometry profiling; Ramos cell lysate; 100 µM over 10 µM, UniProt P38606; baseline: high over low concentration).
`COc1ccc2c3c([nH]c2c1)CCN(C)CC3.O=C(O)/C=C/C(=O)O` — result for “recovery time constant”: 9.5 s (Nicotinic acetylcholine receptor alpha9/alpha10 (Rattus norvegicus, UniProt P43144+Q9JLB5); ion current, inhibitor, two-electrode voltage clamp; Xenopus laevis oocytes; 1 µM, rat receptor, with: acetylcholine 10 µM).
For `COc1ccccc1N1CCN(c2c(C#N)nnc3c(OC)cc(F)cc23)CC1`, activity read “inactive” (Metabotropic glutamate receptor 8 (GRM8, Homo sapiens, UniProt O00222); positive allosteric modulator; concentration not given, with: glutamate).
The cytotoxicity efficacy of `Cc1cc(C)cc(-c2ccc(CN3CCCC3C(=O)NCc3cccc(F)c3)cc2)c1` (stereo not shown) is reported as -24.3% (Vero-E6; CellTiter-Glo ATP; concentration not given, 72 h, retest 8-point duplicates; baseline: DMSO 0%, hyamine -100%, more negative, more toxic).
With `O=C(O)COP(=O)(O)O` the Ki ratio was 18 (TPI1 (Saccharomyces cerevisiae, UniProt P00942, Y208T); enzyme activity, competitive inhibitor, GPDH/NADH-coupled; pH 5.7, 25 °C, ionic strength 0.1 NaCl, with: glyceraldehyde 3-phosphate substrate; baseline: mutant over wild type).
The activation of `CN1CCN(c2cc(-c3ccncc3)c(-c3ccc4ccccc4c3)nn2)CC1` is reported as 0.8% (Neuromedin-K receptor (TACR3, Homo sapiens, UniProt P29371); agonist, FLIPR; 12.5 µM).
With `CI` the Km was 2790 ± 300 µM (HOL1 (Arabidopsis thaliana, UniProt Q0WP12); substrate, iodide release colorimetric; pH 7.5, sodium phosphate buffer, with: 1 mM SAH).
With `CSC[C@H]1CN(Cc2c[nH]c3c(N)ncnc23)C[C@@H]1O` the k3 was 0.16 ± 0.09 min⁻¹ (Aminodeoxyfutalosine nucleosidase (Helicobacter pylori, UniProt Q9ZMY2); forward isomerization rate).
`O=C(O)C(F)(F)C(F)(F)C(F)(F)C(F)(F)C(F)(F)C(F)(F)C(F)(F)F` — result for “linear uptake duration”: 2.5 min (Solute carrier family 22 member 6 (SLC22A6, Homo sapiens, UniProt Q4U2R8); substrate; HEK293 stably expressing; 10 µM).
`O=C(Nc1cccnn1)N1CCC(=Cc2cccc(Oc3ccc(C(F)(F)F)cn3)c2)CC1` gave an inhibition of 15% (Retinoic acid receptor RXR-alpha (RXRA, Homo sapiens, UniProt P19793); radioligand binding, inhibitor; 50 µM, human, with: [3H]9-cis-retinoic acid).
For `C#CCCCCCCCCC(=O)Nc1ccc(-n2nc(OC)oc2=O)cc1`, the mass increase was 371 Da (Uncharacterized hydrolase SAUSA300_2518 (Staphylococcus aureus, UniProt Q2FDS6); covalent labelling, mass spectrometry; Staphylococcus aureus USA300; 200 µM, 4 h, room temperature).
`COc1ccc(CCNC(=O)c2cc(Nc3ccccc3)nc3ccccc23)cc1OC` has a cytotoxicity efficacy of -11.8% (Vero-E6; CellTiter-Glo ATP; concentration not given, 72 h, retest 8-point duplicates; baseline: DMSO 0%, hyamine -100%, more negative, more toxic).
`CC(=O)c1c(C)c2cnc(Nc3ccc(C4CCN(CCS(C)(=O)=O)CC4)cn3)nc2n(C2CCCC2)c1=O` gave a Cmax of 111 ng/mL (human, dose-escalation trial, plasma; oral, 50 mg twice daily, day 21, multiple doses).
`CC(C)CCN[C@H]1[C@H]([C@H](O)[C@H](O)CO)OC(C(=O)O)=C[C@@H]1O` — result for activity: “inactive” (Sialidase-1 (NEU1, Homo sapiens, UniProt Q99519); enzyme activity, inhibitor; concentration not given, pH 4.5).
With `CC1(C)COP(=O)(O)O[C@H]1C(=O)NCCC(=O)NS(=O)(=O)OC[C@H]1O[C@@H](n2ccc(N)nc2=O)[C@H](O)[C@@H]1O` the selectivity ratio was 20 to 740 fold (phosphopantothenoylcysteine synthetase; enzyme activity; baseline: IC50 human over bacterial).
`Nc1ncc(-c2nc(N3CCOCC3)nc(N3CCOCC3)n2)c(C(F)F)n1` gave a remaining binding of 89% (Serine/threonine-protein kinase LATS2 (LATS2, Homo sapiens, UniProt Q9NRM7); KINOMEscan; 10 µM).
For `CCCCCCCCCC(=O)CC(=O)Nc1ccccc1`, the Emax was 93% (Regulatory protein SdiA (sdiA, Escherichia coli, UniProt P07026)).
The relative abundance of `C[C@H]1CN(c2n[nH]c3nc(N[C@H]4CC[C@H](NS(=O)(=O)CCC(F)(F)F)CC4)ncc23)CCO1` is reported as 1.08 (Trifunctional enzyme subunit alpha, mitochondrial (HADHA, Homo sapiens, UniProt P40939); inhibitor, Kinobeads competition profiling; 20 µM; baseline: vehicle).
The cGMP level of `O=C(O)CCCCN(CCc1cc(F)ccc1OCc1ccc(-c2ccc(C(F)(F)F)cc2)cc1)Cc1ccc(C(=O)O)cc1` is reported as 4.02 ± 1.23 fold (Gucy1b1, with alpha1 subunit (Rattus norvegicus, UniProt P20595); rat cells; concentration not given, compound alone; baseline: untreated control).
The reaction velocity of `C=C(CN(C(=O)c1c(C(F)F)nn(C)c1F)C1CC1)c1ccc(Cl)cc1Cl` is reported as 0.0141 µM/s and 0.0132 µM/s and 0.0129 µM/s (SDHD/SDHC/SDHB (Sus scrofa, UniProt A5GZW8+D0VWV4+Q007T0); enzyme activity, inhibitor, DCIP reduction; pig; 0.4 µM, with: DCIP 120 µM).
For `COc1cc2nccc(Oc3ccc(NC(=O)c4cc5c(n(-c6ccccc6)c4=O)CCCC5=O)nc3)c2cc1OC`, the selectivity ratio was over 100 (Tyrosine-protein kinase Fgr (FGR, Homo sapiens, UniProt P09769); cell viability, CellTiter-Glo; Ba/F3 expressing recombinant kinase; baseline: FGR IC50 over AXL IC50).
For `CC[C@@H](C)[C@@H](NC(=O)[C@@H](Cc1ccc(O)cc1)NC(=O)[C@H]1CCCN1C(=O)[C@@H](CCCNC(=N)N)NC(=O)[C@H](N)Cc1c[nH]cn1)C(=O)N[C@H](C)C(=O)N[C@H](Cc1c[nH]cn1)C(=O)N[C@H](CCCNC(=N)N)C(=O)N[C@H](CCCCNC(=O)c1cccc(S(=O)(=O)F)c1)C(=O)N[C@H](Cc1ccc(O)cc1)C(=O)N[C@H](CO)C(=O)N[C@H](Cc1ccccc1)C(N)=O`, “surface TFRC expression” read 0.562 (Transferrin receptor protein 1 (Tfrc, Mus musculus, UniProt Q62351); flow cytometry; RAW264.7; 2 h, pH 6, replicate 2, unit not given; baseline: 0 h).
`NS(=O)(=O)C(F)(F)C(F)(F)C(F)(F)C(F)(F)C(F)(F)C(F)(F)C(F)(F)C(F)(F)F`: “binding fold change” 670 (Fatty acid-binding protein, liver (FABP1, Homo sapiens, UniProt P07148); affinity selection mass spectrometry; 100 nM, with: pooled compounds; baseline: other proteins).
The inhibition of `CN(C(=O)n1cnc(-c2ccc[n+]([O-])c2)c1)C1CCCCC1` is reported as 0% (Tyrosine-protein kinase ZAP-70 (ZAP70, Homo sapiens, UniProt P43403); kinase activity; 50 µM, with: poly(Glu,Tyr)).
`[2H]c1c([2H])c([C@]2([2H])CCCN2C(=O)C(C)(C)Oc2ccc3cn[nH]c3c2)c([2H])c([2H])c1C([2H])([2H])[2H]` gave a remaining binding of 100% (Serine/threonine-protein kinase WNK2 (WNK2, Homo sapiens, UniProt Q9Y3S1); KINOMEscan; 1 µM; baseline: DMSO control).
`CSCC[C@H](NC(=O)CNC(=O)[C@H](CC(N)=O)NC(=O)[C@H](CCSC)NC(=O)[C@H](CCSC)NC(=O)[C@H](CCC(N)=O)NC(=O)[C@H](Cc1c[nH]c2ccccc12)NC(=O)[C@@H](N)CCSC)C(=O)N[C@@H](CO)C(=O)N[C@@H](CCC(N)=O)C(N)=O` — result for “binding to bundled fibrils”: about 15% (huntingtin exon 1 bundled fibrils; EPR spectra quantification; 8 µM).
With `O=C(NNC(=O)c1csnn1)c1ccc(Cl)cc1` the remaining activity was 23.2% (Acetyl-CoA synthetase (Cryptococcus neoformans, UniProt J9VFT1); 6.25 µM).
`Nc1ccc(O)c(C(=O)O)c1`: polyphosphate synthesis “inhibited” (ppk (Escherichia coli, UniProt P0A7B1, E56K); inhibitor; 1 mM; baseline: DMSO).
For `COc1ccc(N2C(=O)N(c3c(C)cccc3Cl)Cc3cnc(Nc4ccc(C5CCN(C)CC5)cc4OC)nc32)nc1`, the inhibition was 98% (Ephrin type-B receptor 1 (EPHB1, Homo sapiens, UniProt P54762); kinase activity; 0.5 µM).
The median ratio of `O=C(c1ccc(Cl)cc1)N1CCN2C(=O)N(OC(=O)N3CCOc4ccccc43)C(=O)C2C1` (stereo not shown) is reported as 1.14 (Dipeptidyl peptidase 9 (DPP9, Homo sapiens, UniProt Q86TI2); enzyme activity, inhibitor, MS-based ABPP; SW-620 in situ; 10 µM, 2 h, 37 °C; baseline: compound over DMSO, lower = stronger inhibition).
For `CC1=C2C[C@H]3[C@@H](CC=C4C[C@@H](O)CC[C@@]43C)[C@@H]2CC[C@]12O[C@@H]1C[C@H](C)CN[C@H]1[C@H]2C`, “decrease of basal signal” read 70.5 ± 1.9% (Protein smoothened (SMO, Homo sapiens, UniProt Q99835); GTPγS binding; CHO stably expressing human SMO; concentration not given).

Repeated from above:
The inhibition of `CN(C(=O)n1cnc(-c2ccc[n+]([O-])c2)c1)C1CCCCC1` is reported as 0% (Tyrosine-protein kinase ZAP-70 (ZAP70, Homo sapiens, UniProt P43403); kinase activity; 50 µM, with: poly(Glu,Tyr)).
For `C#CCCCCCCCCC(=O)Nc1ccc(-n2nc(OC)oc2=O)cc1`, the mass increase was 371 Da (Uncharacterized hydrolase SAUSA300_2518 (Staphylococcus aureus, UniProt Q2FDS6); covalent labelling, mass spectrometry; Staphylococcus aureus USA300; 200 µM, 4 h, room temperature).
The reactivity ratio of `C#CCCCCNC(=O)CI` is reported as 0.903 (V-type proton ATPase catalytic subunit A (ATP6V1A, Homo sapiens, UniProt P38606); mass spectrometry profiling; Ramos cell lysate; 100 µM over 10 µM, UniProt P38606; baseline: high over low concentration).
The activation of `CN1CCN(c2cc(-c3ccncc3)c(-c3ccc4ccccc4c3)nn2)CC1` is reported as 0.8% (Neuromedin-K receptor (TACR3, Homo sapiens, UniProt P29371); agonist, FLIPR; 12.5 µM).
